Experimental data from different studies.
Protocols differ between the studies behind these lines. Numbers after ± are the reported error.

COc1cccc(OCCN2CCC[C@H](CN3CCc4cc(OC)c(OC)cc4CC3=O)C2)c1 has a half-life of 0.82 h (male C57BL/6 mice; intraperitoneal, 20 mg/kg).
The half-life of CC=C1C(OC2OC(CO)C(O)C(O)C2O)OC=C(C(=O)OC)C1CC(=O)OCC1OC(OCCc2ccc(O)cc2)C(O)C(O)C1O (stereo not drawn) is reported as 1.84 h (Balb/c mice, plasma; oral, 109.2 mg/kg).
O=C(NCCN1C(=O)CCC1=O)[O][Pt]12([O]C(=O)NCCN3C(=O)CCC3=O)([NH][C@@H]3CCCC[C@H]3[NH]1)[O]C(=O)C(=O)[O]2 has a half-life of 25.7 h (BALB/c mice, serum; intravenous, equimolar to 9 mg/kg oxaliplatin).
The half-life of COc1cc2c(cc1OC)CC(=O)N(C[C@H]1CCCN(CCOc3ccc(F)cc3)C1)CC2 is reported as 0.73 h (female C57BL/6 mice; intraperitoneal, 20 mg/kg).
With CCN(CC)CC#CCNc1ccnc2cc(Cl)ccc12 the half-life was 2.9 h (male CD1 mice, plasma; intravenous, 10 mg/kg).
CC(=O)N1CCC(NC(=O)Nc2ccc(OC(F)(F)F)cc2)CC1 gave a half-life of 8.75 h (C57BL/6J mice, male, wild type; subcutaneous, 1 mg/kg, added: TPPU 0.3 mg/kg).
With CCNCC#CCNc1ccnc2cc(Cl)ccc12 the half-life was 4.7 h (male CD1 mice, plasma; oral, 20 mg/kg of DAQ, compound as metabolite).
The half-life of COC(=O)C1=CNC=C(C(=O)OC)C1c1ccc(F)c(C(F)(F)F)c1 is reported as 2.24 to 2.48 h (male mice, plasma and brain; intraperitoneal, 25 mg/kg).
For O=C(O)c1ccc(/C=C2\SC(=S)N(Cc3cccc(C(F)(F)F)c3)C2=O)cc1, the half-life was 2.4 h (C57BL/6J mice, blood; dose not given).
With CC(C)(C)ONc1nc(Nc2ccnc(C(F)(F)F)c2)nc(-c2cccc(C(F)(F)F)n2)n1 the half-life was 19.3 h (female Balb/cA nude mice xenograft, tumour; oral, 54.14 mg/kg).
For Oc1cc(F)ccc1Oc1ccccc1, the half-life was 1.3 ± 0.7 h (CD-1 mice, plasma; subcutaneous, 100 mg/kg).
For O=C(Cc1ccc(OCc2ccccc2)cc1)NC1(C(=O)O)CCN(C(=O)c2ccc(-c3cccc(Cl)c3)cc2)CC1, the half-life was 1.32 h (BALB/c mice female; intraperitoneal, 20 mg/kg).

A few entries again:
With CCNCC#CCNc1ccnc2cc(Cl)ccc12 the half-life was 4.7 h (male CD1 mice, plasma; oral, 20 mg/kg of DAQ, compound as metabolite).
The half-life of COC(=O)C1=CNC=C(C(=O)OC)C1c1ccc(F)c(C(F)(F)F)c1 is reported as 2.24 to 2.48 h (male mice, plasma and brain; intraperitoneal, 25 mg/kg).
